Measured values collected from several papers.
Every numbered part comes from another study and shows a few of its results, in no order.

Sample 1
Target: Replicase polyprotein 1ab, polymerase (rep, Severe acute respiratory syndrome coronavirus 2, UniProt P0DTD1)
Read-out: enzyme activity
Action: inhibitor
Tested at: 20 µM
Endpoint: inhibition
O=C(Nc1cccc(C(F)(F)F)c1)Nc1cc(S(=O)(=O)NC2CC2)ccc1-c1ccsc1: 0.95%
COc1ccc2[nH]c(I)c(CCNC(C)=O)c2c1: -14%
O=C(/C=C/c1cccnc1)NCCCCC1CCN(C(=O)c2ccccc2)CC1: -0.18%
C[C@H]1[C@H](C)CC[C@]2(C(=O)O)CC[C@]3(C)C(=CC[C@@H]4[C@@]5(C)C[C@@H](O)[C@H](O)[C@@](C)(CO)[C@@H]5CC[C@]43C)[C@H]12: -4.44%
Cc1ncc(CO)c(C=O)c1O: 2.87%
O=C(CCc1ccc(O)cc1)c1c(O)cc(O)cc1O: 4.23%
CC(C)Cc1ccc(C(C)C(=O)NCCO)cc1 (stereo not shown): 6.33%
Cc1cc(-c2ncc(CC(=O)Nc3ccc(-c4cnccn4)cn3)cc2C)ccn1: -2.51%
COC(=O)Nc1ccc2[nH]cc(CCNC(C)=O)c2c1: -9.52%
CCOc1cc(OCC)c(C(=O)CCC(=O)O)cc1OCC: -1.89%
Nc1c(Br)cc(Br)cc1CN[C@H]1CC[C@H](O)CC1: -2.77%
COC1=C2C[C@@H](C)C[C@H](OC)[C@H](O)[C@@H](C)/C=C(\C)[C@H](OC(N)=O)[C@@H](OC)/C=C\C=C(/C)C(=O)NC(=CC1=O)C2=O: -6.28%
CC(CN(C)C)CN1c2ccccc2CCc2ccccc21 (stereo not shown): -5.03%
Clc1cccc(Cl)c1NC1=NCCN1: -10%
Cc1cc(-c2ccccc2)nnc1NCCN1CCOCC1: 26.6%
O=C(Nc1ccc([N+](=O)[O-])cc1Cl)c1cc(Cl)ccc1O: -4.55%
CC[C@@H]1C(=O)N(C)c2cnc(Nc3ccc(C(=O)N[C@H]4CC[C@H](N5CCN(CC6CC6)CC5)CC4)cc3OC)nc2N1C(C)C: 8.67%
Cc1c(C(=O)NCc2cccnc2)nn(-c2ccc(Cl)cc2Cl)c1-c1ccc(Cl)cc1: 0.72%
CC(C)n1c(/C=C/[C@@H](O)C[C@@H](O)CC(=O)O)c(-c2ccc(F)cc2)c2ccccc21 (racemic): -0.26%
CCCSc1nc(N[C@@H]2C[C@H]2c2ccc(F)c(F)c2)c2nnn([C@@H]3C[C@H](OCCO)[C@@H](O)[C@H]3O)c2n1: 2.89%
N[C@@H]1[C@H]2CN(c3nc4c(cc3F)c(=O)c(C(=O)O)cn4-c3ccc(F)cc3F)C[C@@H]12: 4.2%
CCC(=O)OCC(=O)[C@@]1(OC(=O)CC)[C@@H](C)C[C@H]2[C@@H]3CCC4=CC(=O)C=C[C@]4(C)[C@@]3(F)[C@@H](O)C[C@@]21C: 1.62%
O=[N+]([O-])c1ccc(O)c2ncccc12: 5.98%
O=C(O)CCCCC(=O)O: 2.66%
FC(F)(F)C(F)(F)C(F)(F)C(F)(F)C(F)(F)C(F)(F)C(F)(F)C(F)(F)Br: -2.42%

Sample 2
Target: Histone acetyltransferase KAT6A, both winged helices, GST fusion (KAT6A, Homo sapiens, UniProt Q92794, residues 1-181)
Method: protein binding microarray
Molecule type: double-stranded DNA, one strand shown
Medium: in vitro
Tested at: not given
Setting: 8-mer, flanks averaged, mean of 2 arrays, mostly near background
Reference: not given
Reading: higher = stronger binding
Endpoint: E-score
Construct (chain): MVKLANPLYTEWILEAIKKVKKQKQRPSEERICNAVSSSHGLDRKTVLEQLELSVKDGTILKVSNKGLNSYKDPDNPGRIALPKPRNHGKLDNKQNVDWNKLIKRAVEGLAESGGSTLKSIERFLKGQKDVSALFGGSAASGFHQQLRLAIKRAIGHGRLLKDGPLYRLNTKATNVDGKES
CGCCTACC: 0.0937
CGGGATAA: 0.151
CGAACGCC: 0.209
AATCGGGG: 0.0946
ATTGCTTG: 0.00556
GGCTTCAC: 0.0772
GGCGGATA: 0.232
ACTACCTG: -0.132

Sample 3
Target: RNA binding protein fox-1 homolog 2, RRM domain, GST-SBP tag (RBFOX2, Homo sapiens, UniProt O43251-10, residues 100-194)
Method: RNA Bind-n-Seq
Molecule type: RNA
Medium: in vitro
Tested at: 365 nM
Setting: natural RNA segment, single round, ends assumed
Reference: no-protein control
Reading: higher = stronger binding
Endpoint: RBNS enrichment (R)
All sequences stand within: GGGAGUUCUACAGUCCGACGAUC … UGGAAUUCUCGGGUGCCAA
Target sequence (chain): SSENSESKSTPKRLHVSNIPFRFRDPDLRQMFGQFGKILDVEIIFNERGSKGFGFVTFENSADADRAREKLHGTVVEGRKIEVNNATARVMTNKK
GGGUGGGAAAGGGUCAUUACAUGAAAAUAUGAAGAAAUAGCCAUAUUAGUUUUUUAACCUGCAAUUUGCCUCAGCAACAAAGAAAAAGUGAAUUUUUAAUGCUGAAGAUA: 0.754
CAUUCCAGUUUUUGUUUUUAAUCAGGCUUUCUCUGGGAACUAGGUCUUUGCACCAGAGAGCAUUUUGCAUUCUGGACUUGAUAGACGCACCCCUUUUUAUACAGAUGUUU: 0.571
UCUAACUUAUUUAUAAAAAGAUGAUCGCUGUAUUUUGAGUUUCAGCUGGAAACUUCUGUAAGGGGCAGCAGUUGAGGUGGGGUAGUGCCGCAGUGGGGUCAAGCUGAGCU: 1.03
AAAACAAAAAACAGAAAAACAAACAAAAAAAGUUGUAUUAUACAGGAUCAAUAUUUUGCUUUUUAACAAGGAUAUUUAUGUAAUAAGAAACUUUGCCUUAGGUAGGUGUU: 0.804
UUUUUUUUUUUCUUUUUGAGAUGGAGUCUCGCUCUGUUGCCCAGGUUGGAGUGCAGUGGCACGAUCUCGGCUCACUGCAACCUCACCUCCCGGGUUCAAGAGAUCCUCCU: 0.294
CCAGUCCCCCAACACUCCCUUCUUCGGAUACAGGUGCCAAAGAACAUUGUGAAGAAAUGAAGAACCGAUAGUCUAGUUUAAGAAAGUGGCUCUCAGUAUUGUGACAGUAC: 0.43
CCAACAUUUGAGAGCAGAGAGUUUGCACCACCACUUCCCGGUUCAAGGUUCUUUUAACUGCUAACUGAAAAUGGAAUGAAAUUGCAUCCAUAGAUACUGAUGGGAUGCCA: 2.81
AGCCUUUGCCAGUCUAGCCCCAGCAGGGCACCGUGUAUGAAUGCAGUUUGGUGCUGUUUUAGAGUAUGCCUGCUCCCCAGCCCCCUGCCUGGAACCCUCUGAGCAACUUG: 2

Sample 4
Target: Sal-like protein 4, full length isoform B (SALL4, Homo sapiens, UniProt Q9UJQ4-2, residues 1-616)
Method: universal PBM
Molecule type: double-stranded DNA, one strand shown
Medium: in vitro
Tested at: not given
Setting: 8-mer, flanks averaged, mean of replicates
Reading: higher = stronger binding
Endpoint: E-score
Target sequence (chain): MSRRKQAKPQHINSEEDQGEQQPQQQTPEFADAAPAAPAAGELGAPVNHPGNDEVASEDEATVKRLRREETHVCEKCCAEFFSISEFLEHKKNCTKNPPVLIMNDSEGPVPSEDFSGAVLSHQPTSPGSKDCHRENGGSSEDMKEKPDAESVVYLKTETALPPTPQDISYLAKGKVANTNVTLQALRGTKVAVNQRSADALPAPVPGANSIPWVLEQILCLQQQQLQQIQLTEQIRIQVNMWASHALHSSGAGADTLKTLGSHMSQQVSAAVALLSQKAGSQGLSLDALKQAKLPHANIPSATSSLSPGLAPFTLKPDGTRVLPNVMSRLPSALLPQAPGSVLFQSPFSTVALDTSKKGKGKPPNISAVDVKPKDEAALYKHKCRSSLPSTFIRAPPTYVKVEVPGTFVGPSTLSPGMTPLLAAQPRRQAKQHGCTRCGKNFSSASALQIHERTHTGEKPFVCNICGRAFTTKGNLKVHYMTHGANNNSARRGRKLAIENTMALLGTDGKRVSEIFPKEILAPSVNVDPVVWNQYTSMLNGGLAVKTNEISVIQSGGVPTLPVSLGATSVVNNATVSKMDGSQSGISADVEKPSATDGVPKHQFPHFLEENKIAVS
CAAAGTAG: 0.108
CGGCTCCA: -0.267
GCGGCATA: 0.00896
CCAATAGC: -0.115
CCTACGTC: -0.192
CCGCTTTC: -0.211
ACTCTACA: -0.0763
GAGTAAGC: -0.155

Sample 5
Cell line: HEK-293T
Read-out: pseudovirus infection
Method: FDA-approved drug library screen
Organism: VSV pseudotyped with SARS-CoV-2 spike
Tested at: 10 µM
Time: 16 h
Reference: vehicle-treated
Endpoint: GFP-positive cells
CCN(CC)C(=O)N1CCN(C)CC1: 88.9%
CCCC(=O)Nc1ccc(OCC(O)CNC(C)C)c(C(C)=O)c1 (stereo not shown): 86.6%
Cc1cn([C@H]2C=C[C@@H](CO)O2)c(=O)[nH]c1=O: 101%

For quick reference, copied from above (sample 5):
Cc1cn([C@H]2C=C[C@@H](CO)O2)c(=O)[nH]c1=O: 101%
CCCC(=O)Nc1ccc(OCC(O)CNC(C)C)c(C(C)=O)c1 (stereo not shown): 86.6%
CCN(CC)C(=O)N1CCN(C)CC1: 88.9%
